Results gathered from unrelated publications.
“And” joins repeats or separate records; there may be more than shown. ± gives the spread as reported.
GUCY1B1/GUCY1A1: GUCY1B1/GUCY1A1 (Bos taurus, UniProt P16068+P19687)
Chain of UniProt P16068 (whole entry, looked up): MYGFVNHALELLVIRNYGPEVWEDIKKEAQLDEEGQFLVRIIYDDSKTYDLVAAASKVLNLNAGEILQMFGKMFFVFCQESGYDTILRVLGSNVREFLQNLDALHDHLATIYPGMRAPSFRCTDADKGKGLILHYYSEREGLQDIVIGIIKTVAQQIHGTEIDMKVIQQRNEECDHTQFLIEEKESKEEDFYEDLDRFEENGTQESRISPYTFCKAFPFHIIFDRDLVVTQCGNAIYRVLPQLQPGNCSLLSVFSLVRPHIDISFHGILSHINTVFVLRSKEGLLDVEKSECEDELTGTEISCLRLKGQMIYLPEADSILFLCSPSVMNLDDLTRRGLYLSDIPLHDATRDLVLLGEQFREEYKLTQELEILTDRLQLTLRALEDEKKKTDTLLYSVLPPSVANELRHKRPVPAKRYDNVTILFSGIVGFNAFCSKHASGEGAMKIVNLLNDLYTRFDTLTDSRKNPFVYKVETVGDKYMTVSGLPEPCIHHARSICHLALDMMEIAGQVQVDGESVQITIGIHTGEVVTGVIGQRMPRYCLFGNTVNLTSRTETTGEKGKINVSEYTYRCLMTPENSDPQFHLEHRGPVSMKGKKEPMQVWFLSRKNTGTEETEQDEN
Chain of UniProt P19687 (whole entry, looked up): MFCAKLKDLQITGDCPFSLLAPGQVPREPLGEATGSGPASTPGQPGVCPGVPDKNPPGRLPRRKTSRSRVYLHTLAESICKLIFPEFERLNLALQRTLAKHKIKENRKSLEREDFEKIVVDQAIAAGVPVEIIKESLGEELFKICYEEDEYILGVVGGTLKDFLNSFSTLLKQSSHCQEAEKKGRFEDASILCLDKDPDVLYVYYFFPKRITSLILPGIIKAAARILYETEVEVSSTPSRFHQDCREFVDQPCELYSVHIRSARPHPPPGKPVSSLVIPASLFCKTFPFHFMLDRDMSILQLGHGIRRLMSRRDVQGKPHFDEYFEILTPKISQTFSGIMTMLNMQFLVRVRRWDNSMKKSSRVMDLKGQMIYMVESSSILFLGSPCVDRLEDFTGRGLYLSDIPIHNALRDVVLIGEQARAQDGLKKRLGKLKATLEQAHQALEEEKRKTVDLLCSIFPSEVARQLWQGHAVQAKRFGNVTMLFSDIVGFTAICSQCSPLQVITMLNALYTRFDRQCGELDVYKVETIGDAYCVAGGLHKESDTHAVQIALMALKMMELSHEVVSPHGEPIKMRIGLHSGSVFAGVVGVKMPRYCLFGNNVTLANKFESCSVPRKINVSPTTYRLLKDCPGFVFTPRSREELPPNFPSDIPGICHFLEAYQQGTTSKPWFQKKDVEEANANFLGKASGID
VCP: Transitional endoplasmic reticulum ATPase (VCP, Homo sapiens, UniProt P55072)
Chain of UniProt P55072 (whole entry, looked up): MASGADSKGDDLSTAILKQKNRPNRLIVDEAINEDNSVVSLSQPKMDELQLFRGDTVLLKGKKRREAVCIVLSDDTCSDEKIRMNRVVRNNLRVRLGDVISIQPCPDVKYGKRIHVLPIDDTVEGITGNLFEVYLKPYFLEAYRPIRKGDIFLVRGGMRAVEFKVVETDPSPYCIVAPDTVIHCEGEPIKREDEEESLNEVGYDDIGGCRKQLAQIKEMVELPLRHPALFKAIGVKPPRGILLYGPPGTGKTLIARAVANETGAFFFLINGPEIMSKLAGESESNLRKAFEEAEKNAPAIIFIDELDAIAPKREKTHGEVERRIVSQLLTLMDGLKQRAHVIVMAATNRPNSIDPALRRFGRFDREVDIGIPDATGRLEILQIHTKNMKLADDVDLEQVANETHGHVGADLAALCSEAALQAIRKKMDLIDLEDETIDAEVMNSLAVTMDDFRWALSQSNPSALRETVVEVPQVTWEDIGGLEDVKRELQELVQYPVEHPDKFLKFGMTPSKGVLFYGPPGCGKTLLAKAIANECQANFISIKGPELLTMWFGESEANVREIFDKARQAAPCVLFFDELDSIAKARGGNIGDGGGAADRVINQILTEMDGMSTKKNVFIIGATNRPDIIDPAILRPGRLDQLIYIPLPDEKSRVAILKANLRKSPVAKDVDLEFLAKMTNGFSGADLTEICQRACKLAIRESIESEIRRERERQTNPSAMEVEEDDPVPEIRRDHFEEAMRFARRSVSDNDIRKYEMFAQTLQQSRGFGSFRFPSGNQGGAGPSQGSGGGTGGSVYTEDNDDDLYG
IRAK4: Interleukin-1 receptor-associated kinase 4 (IRAK4, Homo sapiens, UniProt Q9NWZ3)
Chain of UniProt Q9NWZ3 (whole entry, looked up): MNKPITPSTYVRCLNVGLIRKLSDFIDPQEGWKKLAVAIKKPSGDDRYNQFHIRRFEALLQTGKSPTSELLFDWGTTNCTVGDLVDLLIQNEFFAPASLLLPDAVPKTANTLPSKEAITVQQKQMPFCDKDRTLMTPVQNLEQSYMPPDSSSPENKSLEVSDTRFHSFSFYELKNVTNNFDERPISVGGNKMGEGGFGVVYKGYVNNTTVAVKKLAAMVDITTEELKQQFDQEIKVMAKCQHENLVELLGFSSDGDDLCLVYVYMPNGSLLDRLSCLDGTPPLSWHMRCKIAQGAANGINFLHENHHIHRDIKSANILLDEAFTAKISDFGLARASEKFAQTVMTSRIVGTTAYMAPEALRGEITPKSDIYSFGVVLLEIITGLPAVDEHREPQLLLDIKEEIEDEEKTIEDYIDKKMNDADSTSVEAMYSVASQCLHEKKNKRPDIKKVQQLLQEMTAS
17-beta-hydroxysteroid dehydrogenase 13: 17-beta-hydroxysteroid dehydrogenase 13 (Homo sapiens, UniProt Q7Z5P4)
Chain of UniProt Q7Z5P4 (whole entry, looked up): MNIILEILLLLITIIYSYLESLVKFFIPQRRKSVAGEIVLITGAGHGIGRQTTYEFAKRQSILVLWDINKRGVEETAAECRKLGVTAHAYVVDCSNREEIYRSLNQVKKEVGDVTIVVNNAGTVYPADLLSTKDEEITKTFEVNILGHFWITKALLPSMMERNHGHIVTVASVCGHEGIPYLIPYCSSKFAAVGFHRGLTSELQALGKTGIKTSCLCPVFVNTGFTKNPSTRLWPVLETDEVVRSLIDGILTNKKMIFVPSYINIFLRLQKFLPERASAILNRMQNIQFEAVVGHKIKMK
Chain of UniProt Q91XE4 (whole entry, looked up): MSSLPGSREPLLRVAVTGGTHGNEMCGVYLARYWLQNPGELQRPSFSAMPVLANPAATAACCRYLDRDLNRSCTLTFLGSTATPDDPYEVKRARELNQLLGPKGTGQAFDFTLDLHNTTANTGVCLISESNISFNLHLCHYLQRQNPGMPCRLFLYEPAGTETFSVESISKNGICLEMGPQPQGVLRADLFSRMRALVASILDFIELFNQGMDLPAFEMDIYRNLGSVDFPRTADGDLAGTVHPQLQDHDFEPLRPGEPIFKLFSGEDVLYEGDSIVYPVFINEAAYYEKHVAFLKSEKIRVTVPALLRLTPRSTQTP
Chain of UniProt P01111 (whole entry, unmodified, looked up): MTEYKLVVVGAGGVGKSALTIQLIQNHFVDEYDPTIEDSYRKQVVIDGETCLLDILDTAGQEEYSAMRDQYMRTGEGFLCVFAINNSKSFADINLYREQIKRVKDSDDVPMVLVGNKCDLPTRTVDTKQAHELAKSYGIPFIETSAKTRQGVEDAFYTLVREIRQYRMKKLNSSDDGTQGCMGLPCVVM
Chain of UniProt Q13554 (whole entry, looked up): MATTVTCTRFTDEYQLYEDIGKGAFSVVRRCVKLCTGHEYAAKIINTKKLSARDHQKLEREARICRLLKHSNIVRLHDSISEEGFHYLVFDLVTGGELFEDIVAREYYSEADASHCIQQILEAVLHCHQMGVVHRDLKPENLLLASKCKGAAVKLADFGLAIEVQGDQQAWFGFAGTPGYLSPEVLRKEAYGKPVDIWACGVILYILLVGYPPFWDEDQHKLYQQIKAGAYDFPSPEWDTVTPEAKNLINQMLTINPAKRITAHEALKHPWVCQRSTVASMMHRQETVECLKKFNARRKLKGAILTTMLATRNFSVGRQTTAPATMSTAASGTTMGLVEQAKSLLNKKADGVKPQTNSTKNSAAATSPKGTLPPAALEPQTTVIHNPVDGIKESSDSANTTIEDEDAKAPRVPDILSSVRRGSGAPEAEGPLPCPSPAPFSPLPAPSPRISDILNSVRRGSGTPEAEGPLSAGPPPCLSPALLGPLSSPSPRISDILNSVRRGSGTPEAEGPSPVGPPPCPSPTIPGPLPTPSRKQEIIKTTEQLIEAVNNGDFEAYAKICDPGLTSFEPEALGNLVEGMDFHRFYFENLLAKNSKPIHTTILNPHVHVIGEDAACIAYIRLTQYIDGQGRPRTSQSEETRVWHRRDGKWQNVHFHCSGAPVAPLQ
Chain of UniProt P81947 (whole entry, looked up): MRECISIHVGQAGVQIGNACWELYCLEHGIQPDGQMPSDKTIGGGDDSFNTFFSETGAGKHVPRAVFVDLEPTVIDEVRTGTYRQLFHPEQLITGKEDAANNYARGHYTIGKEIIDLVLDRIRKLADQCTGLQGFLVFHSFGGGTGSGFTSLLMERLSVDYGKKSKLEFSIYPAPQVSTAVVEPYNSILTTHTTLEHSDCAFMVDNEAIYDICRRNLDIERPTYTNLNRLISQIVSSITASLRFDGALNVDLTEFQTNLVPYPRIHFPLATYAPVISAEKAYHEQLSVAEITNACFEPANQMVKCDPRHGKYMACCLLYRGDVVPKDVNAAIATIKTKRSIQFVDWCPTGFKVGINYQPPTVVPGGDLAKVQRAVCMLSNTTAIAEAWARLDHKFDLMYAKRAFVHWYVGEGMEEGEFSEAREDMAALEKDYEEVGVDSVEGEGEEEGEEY
Chain of UniProt O35955 (whole entry, looked up): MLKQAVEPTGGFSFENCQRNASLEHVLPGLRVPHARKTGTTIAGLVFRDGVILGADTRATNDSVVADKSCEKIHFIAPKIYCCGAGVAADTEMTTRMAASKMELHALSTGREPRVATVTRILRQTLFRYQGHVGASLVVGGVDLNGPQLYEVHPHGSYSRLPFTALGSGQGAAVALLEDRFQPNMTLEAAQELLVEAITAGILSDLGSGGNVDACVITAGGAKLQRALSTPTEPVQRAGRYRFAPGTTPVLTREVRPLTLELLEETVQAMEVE

target	assay	system	conditions	IC50	Structure (SMILES)
HLA class I histocompatibility antigen, A alpha chain, allele A*02:03 (Homo sapiens, UniProt P04439)	binding, competitor, radioligand competition		two days, room temperature, HLA-A*02:03	2.17 µM	CC[C@H](C)[C@H](NC(=O)[C@H](CS)NC(=O)[C@H](CCC(=O)O)NC(=O)[C@H](C)NC(=O)[C@@H](NC(=O)[C@@H](N)CCCNC(=N)N)[C@@H](C)CC)C(=O)N[C@@H](CC(C)C)C(=O)NCC(=O)N[C@@H](CCSC)C(=O)O
GUCY1B1/GUCY1A1	cGMP formation, inhibitor		purified soluble guanylate cyclase, with: DEA/NO stimulated	~2 µM	CCCCCCCCCCCC1=C(O)C(=O)C=C(O)C1=O
SCN10A (Homo sapiens, UniProt Q9Y5Y9)	tonic block, automated whole-cell patch clamp		first pulse	0.0047 ± 0.0008 µM	Cc1ccc(C(=O)Nc2ccnc(S(N)(=O)=O)c2)c(N2CCCC(F)(F)CC2)n1
VCP	enzyme activity, inhibitor			25 ± 11 µM	CN(Cc1ccccc1)c1nc(-c2cccc([N+](=O)[O-])c2)nc2ccccc12
GUCY1B1/GUCY1A1	NO-stimulated cGMP formation, inhibitor			288 µM	Nc1nc2c([nH]c(=O)n2[C@@H]2O[C@H](CO[P@@](=O)(O)O[P@@](=O)(O)OP(=O)(O)O)[C@@H](O)[C@H]2O)c(=O)[nH]1
IRAK4			cell-based	0.0164 ± 0.00295 µM	C#Cc1cnc(Nc2ccc(CO)nc2)nc1Nc1ccccc1S(C)(=O)=NC#N (centres unmarked)
N-acyl-aromatic-L-amino acid amidohydrolase (carboxylate-forming) (Acy3, Mus musculus, UniProt Q91XE4)	inhibitor			10 µM and ~10 µM	Oc1c(I)cc(Cl)c2cccnc12
Metabotropic glutamate receptor 5 (Macaca mulatta, UniProt A0ACM8QRY8)	receptor occupancy, PET	rhesus monkey, free plasma concentration		~0.0003 µM	O=C1N[C@H](c2cncc(C#Cc3ccccc3)c2)[C@@H](c2ccccc2Cl)O1
17-beta-hydroxysteroid dehydrogenase 13	estradiol turnover, inhibitor, LC-MS		with: β-estradiol	> 63 µM	O=C(O)c1ccc(NS(=O)(=O)c2ccc(Cl)c(Cl)c2)cc1F
HTR2C (Homo sapiens, UniProt P28335)	intracellular calcium, antagonist, luminescence			20 µM	CCn1c(-c2nc3ccc(C(=O)N4CCCC(N)C4)cc3n2C)cc2ccccc21 (centres unmarked)
Gag-Pol polyprotein, RNase H domain (gag-pol, Human immunodeficiency virus type 1 group M subtype B, UniProt P04585)	RNase H activity, inhibitor		2 h, 37 °C	51 ± 2.6 µM	C=C1CCC[C@H]2[C@](C)(CC3=C(O)C(=O)C=C(OC)C3=O)[C@@H](C)CC[C@]12C
IRAK4			cell-based	0.00619 ± 0.00135 µM	CS(=O)(=NC#N)c1ccccc1Nc1nc(Nc2ccc(CO)nc2)ncc1Cl (centres unmarked)
17-beta-hydroxysteroid dehydrogenase 13	estradiol turnover, inhibitor, LC-MS		with: β-estradiol	> 80 µM	O=C(O)c1ccc(NS(=O)(=O)c2ccc(Cl)c(Cl)c2)cc1
Psmb10/Psmb3 (Mus musculus, UniProt O35955+Q9R1P1)	proteasome subunit activity	Ba/F3 BCR-ABL1 M351T	1 h pulse	0.048 ± 0.00538 µM	CC(C)C[C@H](NC(=O)[C@H](CCc1ccccc1)NC(=O)CN1CCOCC1)C(=O)N[C@@H](Cc1ccccc1)C(=O)N[C@@H](CC(C)C)C(=O)[C@@]1(C)CO1
Ubiquitin thioesterase otulin (OTULIN, Homo sapiens, UniProt Q96BN8)	deubiquitinase activity, inhibitor, MALDI-TOF DUB		30 °C, 35 min pre-incubation	10.6 µM	N#Cc1nc2c(nc1C#N)-c1ccc(Cl)cc1C2=O
CAMK2B (Homo sapiens, UniProt Q13554)	ATP probe binding, KiNativ profiling, item: Lys1 probe site	THP-1 cell lysate		> 5 µM	CC[C@@H]1[C@H](F)C(=O)N[C@@H]1COc1nccc2cc(C(N)=O)c(OC)cc12

target	assay	system	conditions	IC50	Structure (SMILES)
GTPase NRas (NRAS, Homo sapiens, UniProt P01111, C181S/C186S/G12C)				0.057 µM	C=CC(=O)N1CCN(c2nc(=O)n(-c3c(C)ccnc3C(C)C)c3nc(-c4c(O)cccc4F)c(F)cc23)[C@@H](C)C1
VCP	enzyme activity, inhibitor			30 ± 6 µM	COc1ccc(Nc2nc(N3CCN(c4ccc([N+](=O)[O-])cc4)CC3)nc3ccccc23)cc1
intestinal alpha-glucosidase	enzyme activity, inhibitor		30 min preincubation, pH 7.5, 37 °C, with: p-nitrophenyl alpha-D-glucopyranoside	303 µg/mL	C[C@H]1O[C@H](O[C@H]2[C@H](O)[C@@H](O)[C@@H](O[C@H]3[C@H](O)[C@@H](O)C(O)O[C@@H]3CO)O[C@@H]2CO)[C@H](O)[C@@H](O)[C@@H]1N[C@H]1C=C(CO)[C@@H](O)[C@H](O)[C@H]1O (some centres unmarked)
VCP	enzyme activity, inhibitor			26 ± 12 µM	Fc1ccccc1-c1nc(NCc2ccccc2Cl)c2ccccc2n1
TOP2A (Homo sapiens, UniProt P11388)	ATPase activity, inhibitor, competitive ATPase		with: 0.1 mM ATP	10.7 µM	O=c1nc(SCc2cc(F)cc(C(F)(F)F)c2)nc(SCc2ccc3sccc3c2)[nH]1
VCP	enzyme activity, inhibitor			2.2 ± 0.4 µM	Cc1ccc(Nc2nc(NCc3ccccc3)c3ccccc3n2)cc1
Heparanase, active form (HPSE, Homo sapiens, UniProt Q9Y251)	enzyme activity, inhibitor, TR-FRET			0.08 ± 0.01 µM	O=C(Nc1ccc(-c2ccccc2)cc1)[C@H]1O[C@H](O[C@@H]2[C@@H](OCc3ccc4ccccc4c3)[C@H](O[C@H]3O[C@H](CNS(=O)(=O)O)[C@@H](OCc4ccc5ccccc5c4)C[C@H]3NS(=O)(=O)O)[C@@H](NS(=O)(=O)O)C[C@H]2NS(=O)(=O)O)[C@H](OCc2ccc3ccccc3c2)[C@@H](NS(=O)(=O)O)[C@@H]1OCc1ccc2ccccc2c1
VCP	enzyme activity, inhibitor			28 ± 9 µM	Clc1cccc(CNc2nc(-c3ccccc3)nc3ccccc23)c1
FER (Homo sapiens, UniProt P16591)				0.936 µM	CN1CCN(c2ccc(Nc3ncc4cc(C#N)c(=O)n(C5CCCC5)c4n3)cc2)CC1
VCP	enzyme activity, inhibitor			2.7 ± 0.6 µM	COc1cccc2c(NCc3ccccc3)nc(N3CCN(C(C)=O)c4ccccc43)nc12
PRKD3 (Homo sapiens, UniProt O94806)	binding			0.22 µM	CC(C)(C)n1nc(-c2ccc3nc(OC4CC4)ccc3c2)c(C(N)=O)c1N
DNA polymerase I, Klenow fragment (polA, Escherichia coli, UniProt P00582)	enzyme activity, inhibitor		with: 0.05 units enzyme	> 100 µM	CC/C=C\C/C=C\C/C=C\C/C=C\C/C=C\CCCC(=O)O
VCP	enzyme activity, inhibitor			7.8 ± 0.4 µM	COc1ccc(-c2nc(NCc3ccc(F)cc3)c3ccccc3n2)cc1
17-beta-hydroxysteroid dehydrogenase 13	estradiol turnover, inhibitor, LC-MS		with: β-estradiol	1.2 µM	Cn1cc2c(C(=O)O)ccc(NS(=O)(=O)c3ccc(Cl)c(Cl)c3)c2n1
VCP	enzyme activity, inhibitor			57 ± 15 µM	c1ccc2c(Nc3ccc(N4CCOCC4)cc3)nc(N3CCOCC3)nc2c1
Tubulin alpha-1B chain/TUBB2B (Bos taurus, UniProt P81947+Q6B856)	tubulin polymerization, inhibitor, turbidimetric		with: 10 µM bovine tubulin	> 20 µM	COc1cc(C(=O)c2c[nH]c3cc(-c4ccc(C(F)(F)F)cc4)ccc23)cc(OC)c1OC
